Results of several laboratories.
Lines come from different studies, so protocols differ. Values joined by “and” are separate records of one study, mostly repeats; a detail may differ.
Target: Testis-specific serine/threonine-protein kinase 2 (TSSK2, Homo sapiens, UniProt Q96PF2)

Cc1nc2c(F)cc(-c3nc(Nc4ccc(CNC(=O)CCCCCCC(=O)NO)cc4)ncc3F)cc2n1C(C)C  inhibition (enzyme activity, inhibitor; 1 µM): 24%
C=CC(=O)Nc1cccc(-c2cnc3[nH]cc(C(=O)NC(C)(C)C)c3n2)c1  inhibition (enzyme activity, inhibitor; 0.1 µM): 6%
O=C(Cc1ccc(OCc2ccccc2)cc1)NC1(C(=O)O)CCN(C(=O)c2ccc(-c3cccc(Cl)c3)cc2)CC1  activity vs control (enzyme activity, inhibitor; 10 µM): 110%
CNC(=O)C[C@H](Cc1ccc(C#N)cc1)NC(=O)c1cc(-c2ccc(CN[C@H](C)c3ccc(C)cc3)o2)ccc1Cl  activity vs control (enzyme activity, inhibitor; 1 µM): 103%
CN1CC[C@@H](COc2cnc(C#N)cc2-c2ccn3nc(NC(=O)C4CC4)cc3c2)C1  inhibition (enzyme activity, inhibitor; 1 µM): 0%
Cc1cccc(O[C@H]2CCC[C@@H](C(C)CNCc3ccncc3)C2)c1 (relative stereo)  inhibition (enzyme activity, inhibitor; 10 µM): -16%
COc1ccc(NC(=O)Nc2ccc3c(c2)C(=O)N(C(C)CO)CC(C)C(CN(C)Cc2ccc4c(c2)OCO4)O3)cc1 (stereo not shown)  remaining activity (kinase activity, KinaseProfiler; 0.03 µM, species human; reference: control): 102%
NC(=O)C[C@H]1CCc2sc3ncnc(O[C@H]4CC[C@H](N5CCOCC5)CC4)c3c21  inhibition (enzyme activity, inhibitor; 10 µM): -1%
Nc1ncc(-c2cc(-c3cnn(CC(F)(F)F)c3)ncc2F)nc1C(=O)NC1CNCC(F)C1 (stereo not shown)  remaining activity (enzyme activity; 1 µM; reference: DMSO control): 96.7%
NC(=O)[C@@H](O)C[C@H]1CCc2sc3ncnc(O[C@H]4CC[C@H](N5CCOCC5)CC4)c3c21  inhibition (enzyme activity, inhibitor; 10 µM): 0%
CN1CCN(Cc2ccc(-c3ccc(CO[C@H]4CCC[C@@H]4NC(=O)c4cc(-c5cnn(C)c5)cnc4N)cc3)cc2)CC1  inhibition (enzyme activity, inhibitor; 0.1 µM): 3%
CCn1cc(C(=O)O)c(=O)c2c(N)c(F)c(NC3CCCCC3)cc21  inhibition (kinase activity; 0.1 µM, added: ATP at Km): -10.3%
C=CC(=O)N1Cc2nc(-c3cc(-c4cc(Cl)cnc4Cl)c(F)cc3F)n(-c3ccncn3)c2C1  inhibition (cell-free assay, inhibitor; 1 µM): 5.1%
COc1c(OCCCN2CCOCC2)ccc2c1N=C(NC(=O)c1cnc(N)nc1)N1CCN=C21  remaining activity (kinase activity, inhibitor; 1 µM; reference: untreated control): 93%
O=C=[N][Ru-4]123([n]4c5ccc(O)cc5c5c6c(c7cc(F)c[n+]1c7c54)C(=O)NC6=O)[S+]1CC[S+]2CC[S+]3CC1 (stereo not shown)  remaining activity (enzyme activity; 100 nM, human enzyme, added: 10 µM ATP; reference: untreated): 100%
COCC12C(=O)NC3C4(C(OC)CC1O)C1CC5(O)C(OC)C(O)C(OC(C)=O)(C1C5OC(=O)c1ccccc1)C3(O)C(OC)C24 (stereo not shown)  remaining activity (kinase activity, inhibitor, ProQinase kinase profiling; 25 µM; reference: control): 98% and 92%

For quick reference, copied from above:
CCn1cc(C(=O)O)c(=O)c2c(N)c(F)c(NC3CCCCC3)cc21  inhibition (kinase activity; 0.1 µM, added: ATP at Km): -10.3%
COCC12C(=O)NC3C4(C(OC)CC1O)C1CC5(O)C(OC)C(O)C(OC(C)=O)(C1C5OC(=O)c1ccccc1)C3(O)C(OC)C24 (stereo not shown)  remaining activity (kinase activity, inhibitor, ProQinase kinase profiling; 25 µM; reference: control): 98% and 92%
